Measured values collected from several papers.
Compare with care: the assays were run in different laboratories.

`CCOc1c([C@H](C)n2nc(C)c3c(N)ncnc32)cc(Cl)c(F)c1[C@@H]1CNC(=O)C1` gave a patients of 7.1% (measured: QRS >100 to ≤110 ms; previously treated B-cell malignancy; oral, 20 mg once daily, baseline below thresholds).
For `COc1cc(Nc2ncc3c(n2)-c2ccc(Cl)cc2C(c2c(F)cccc2OC)=NC3)ccc1C(=O)O`, “patients with decreased ejection fraction” read 4% (cancer patients; oral, dose not given, grade 3 any attribution, added: pembrolizumab).
Under “patients with adverse events”, `C=CC(=O)Nc1cc(Nc2nccc(-c3cn(C)c4ccccc34)n2)c(OC)cc1N(C)CCN(C)C` is recorded as 3% (measured: treatment-related grade ≥3 Fatigue; EGFR-mutant MET-altered NSCLC; oral, dose not given, all).
`CNC(=O)c1ccc(-c2cnc3ncc(Cc4ccc5ncccc5c4)n3n2)cc1F`: “patients with adverse event” 0% (measured: Dyspnea; other cancer patients; oral, 600 mg twice daily, expansion cohort, grade 3-4).
`FC(F)(F)c1ccc(CNc2ccc(Cc3c[nH]c4ncc(Cl)cc34)cn2)cn1`: “patients with treatment-related adverse event” 12% (measured: aspartate aminotransferase increased; advanced solid tumour patients; oral, 1000 mg/day, all grades, all cohorts).
Under “patients with cardiac disorders”, `CNC(=O)c1cc(Oc2ccc(NC(=O)Nc3cc(C(C)(C)C)nn3-c3ccc4ncccc4c3)c(F)c2)ccn1` is recorded as 17% (patients; oral, dose not given, cycles 1 and 2, High Cmax subgroup).
`C[C@@H](Nc1cc(F)cc(F)c1)c1cc(C(=O)N(C)C)cc2c(=O)cc(N3CCOCC3)oc12` — result for “patients with related SAE”: 0% (CTCAE v4, measured: lung infection; patients with advanced solid tumours; oral, dose not given, phase I dose expansion).
Under “patients with upper abdominal pain”, `O=C(Nc1nc2cccc(-c3ccc(CN4CCS(=O)(=O)CC4)cc3)n2n1)C1CC1` is recorded as 0% (rheumatoid arthritis patients; oral, 300 mg once daily, 4 weeks, TEAE regardless of relatedness).
`Cc1cc(NC2CCN(C(=O)OC3CCN(C(=O)/C=C/CN(C)C)C3)CC2)n2ncc(C(C)C)c2n1` (centres unmarked) — result for “patients with Constipation”: 0% (patients with advanced solid tumours; dose not given, QD arm, grade 3 or higher).
`CCO[C@H]1CCN(Cc2c(OC)cc(C)c3[nH]ccc23)[C@H](c2ccc(C(=O)O)cc2)C1`: “patients with adverse event” 20% (measured: Dyspepsia; PNH patients, active haemolysis; oral, 100 mg twice daily, extension phase).
`C=CC(=O)NC1CCN(c2ncc3ncnc(Nc4ccc(Oc5ccc6c(c5)ncn6C)c(C)c4)c3n2)CC1` — result for “patients with Flatulence”: 0% (male patients; oral, dose not given, on-treatment adverse events).

Excerpt of the above:
`FC(F)(F)c1ccc(CNc2ccc(Cc3c[nH]c4ncc(Cl)cc34)cn2)cn1`: “patients with treatment-related adverse event” 12% (measured: aspartate aminotransferase increased; advanced solid tumour patients; oral, 1000 mg/day, all grades, all cohorts).
